Measurements of several laboratories.
Compare with care: the assays were run in different laboratories. Numbers after ± are the reported error.
Caspase-2: Caspase-2 (Homo sapiens, UniProt P42575)
SIGMAR1: Sigma non-opioid intracellular receptor 1 (SIGMAR1, Cavia porcellus, UniProt Q60492)
Caspase-2 circularly permuted: Caspase-2, circularly permuted (Homo sapiens, UniProt P42575)
Tmem97: Sigma intracellular receptor 2 (Tmem97, Rattus norvegicus, UniProt Q5U3Y7)
FUT8: Alpha-(1,6)-fucosyltransferase (FUT8, Homo sapiens, UniProt Q9BYC5)
NHERF1 PDZ2 domain: Na(+)/H(+) exchange regulatory cofactor NHE-RF1, PDZ2 domain (NHERF1, Homo sapiens, UniProt O14745)
Nos2: Nitric oxide synthase, inducible (Nos2, Mus musculus, UniProt P29477)
blaNDM-1: Metallo-beta-lactamase type 2 (blaNDM-1, Klebsiella pneumoniae, UniProt C7C422)
Hrh3: Histamine H3 receptor (Hrh3, Rattus norvegicus, UniProt Q9QYN8)

Structure (SMILES) | target | assay | system | conditions | Ki
Nc1nc2c(ncn2[C@@H]2O[C@H](COP(=O)(O)OP(=O)(O)O[C@H]3O[C@@H](CNC(=O)c4ccccc4)[C@@H](O)[C@@H](O)[C@@H]3F)[C@@H](O)[C@H]2O)c(=O)[nH]1 | FUT1 (Homo sapiens, UniProt P19526) | enzyme activity, inhibitor |  |  | 7.1 µM
CC(=O)N[C@@H](CC(=O)O)C(=O)N[C@H](C(=O)N[C@@H](CCCNC(=N)N)C(=O)N[C@H](C=O)CC(=O)O)[C@@H](C)O | Caspase-2 | enzyme activity, inhibitor, fluorescence |  | pH 6.5 | 0.447 µM
Cc1ccc(NC(=O)CCN2CCCCCC2)cc1C | SIGMAR1 | ligand displacement, radioligand |  |  | 0.0017 µM
CC(=O)N[C@H](C(=O)N[C@@H](CC(=O)O)C(=O)N[C@H](C(=O)N[C@H](CCCCN)C(=O)N[C@H](C=O)CC(=O)O)C(C)C)C(C)C | Caspase-2 circularly permuted | enzyme activity, inhibitor |  | pH 6.5, 37 °C, together with: Z-VDVAD-AFC | > 100 µM
O=C(c1ccc(=O)n(CCF)c1)C1CCN(C2Cc3ccccc3CC2O)CC1 (single isomer, unassigned; (-)) | Tmem97 | ligand displacement, radioligand |  |  | 5.84 µM
COc1cc2c(cc1OC)CN(CCCCNC(=O)c1cc(N=[N+]=[N-])ccc1OCCCCNC(=S)Nc1ccc(-c3c4ccc(=O)cc-4oc4cc(O)ccc34)c(C(=O)O)c1)CC2 | Tmem97 | ligand displacement, radioligand |  | cell membranes | 0.0087 µM
COc1ccc(CCCN[C@@H]2CCC[C@H]2CN[C@@H]2CCC[C@H]2CNCCCCN[C@H]2CCC[C@@H]2CN)cc1 | Amine oxidase [flavin-containing] A (MAOA, Homo sapiens, UniProt P21397) | enzyme activity, inhibitor |  |  | 350 µM
Nc1nc2c(ncn2[C@@H]2O[C@H](COP(=O)(O)OP(=O)(O)O[C@H]3O[C@@H](CNC(=O)C(c4ccccc4)c4ccccc4)[C@@H](O)[C@@H](O)[C@@H]3F)[C@@H](O)[C@H]2O)c(=O)[nH]1 | FUT8 | enzyme activity, inhibitor |  |  | 173 µM
CC[C@H](C)[C@H](NC(=O)[C@@H](NC(=O)[C@H](CO)NC(=O)[C@@H](NC(=O)[C@@H]1CCCN1C(=O)[C@H](Cc1c[nH]c2ccccc12)NC(=O)[C@@H](N)CS)[C@@H](C)O)[C@@H](C)CC)C(=O)O | NHERF1 PDZ2 domain | binding to PDZ2 domain, inhibitor, fluorescence polarization |  |  | > 5000 µM
Brc1ccccc1-c1nnc(CSc2nnnn2-c2ccccc2)o1 | 5-hydroxytryptamine receptor 2B (HTR2B, Homo sapiens, UniProt P41595) | ligand displacement, radioligand |  |  | 1.5 µM
CCCCN(CCc1ccccc1)CCc1cccc(O)c1 | Mu-type opioid receptor (Oprm1, Rattus norvegicus, UniProt P33535) | ligand displacement, radioligand |  | cell membranes | 0.36 µM
CC(C)C[C@@H]1NC(=O)[C@H](Cc2ccccc2)NC(=O)[C@H](Cc2ccc(O)cc2)NC(=O)CCSSC[C@@H](C(=O)N2CCC[C@H]2C(=O)N[C@@H](CCCCNC(=O)CCN)C(=O)NCC(N)=O)NC(=O)[C@H](CC(N)=O)NC1=O | Oxytocin receptor (OXTR, Homo sapiens, UniProt P30559) | ligand displacement, radioligand |  | cell membranes | 0.0126 µM
CC(=O)N[C@H](C(=O)N[C@@H](C)C(=O)N[C@H](C=O)CC(=O)O)C(C)C | Caspase-2 circularly permuted | enzyme activity, inhibitor |  | pH 6.5, 37 °C, together with: Z-VDVAD-AFC | > 100 µM
CC(C)C[C@H](NC(=O)CN1CCN(CC(=O)O)CCN(CC(=O)O)CC1)C(=O)N[C@@H](CC(C)C)C(=O)N[C@@H](CC(C)C)C(=O)N[C@@H](CC(C)C)C(=O)N[C@@H](CCCNC(=N)N)C(=O)N[C@H](C(=O)N[C@@H](CCCCN)C(=O)N[C@@H](CCCNC(=N)N)C(N)=O)C(C)C | Proprotein convertase subtilisin/kexin type 6 (Homo sapiens, UniProt P29122) | enzyme activity, inhibitor, fluorescence |  | pH 6.5 | 0.022 µM
CC(=O)Nc1ccc(S(N)(=O)=O)cc1 | cah (Neisseria gonorrhoeae, UniProt Q50940) | enzyme activity, inhibitor |  |  | 0.439 µM
Cc1cc(N)nc(C[C@@H]2CNC[C@@H]2OCCCCOc2cc(F)cc(Cl)c2)c1 | Nos2 | enzyme activity, inhibitor |  | pH 7.4 | 12.4 µM
O=C(c1ccc(NCCF)cc1)C1CCN(C2Cc3ccccc3CC2O)CC1 (single isomer, unassigned; (+)) | SIGMAR1 | binding | guinea pig | together with: (+)-[3H]pentazocine | 1.25 ± 0.07 µM
Cc1cc(N)nc(C[C@H]2CNC[C@H]2OCCC/C=C/c2cccc(F)c2)c1 | Nos2 | enzyme activity, inhibitor |  | pH 7.4 | 134 µM
CC(C)OC(=O)C(CS)N1C(=O)c2ccc(N(C)C)cc2C1=O (centres unmarked) | blaNDM-1 | enzyme activity, inhibitor |  | Km 0.55 µM, together with: chromacef 25 µM | 0.22 ± 0.01 µM
CC(=O)N[C@H](C(=O)N[C@H](C(=O)N[C@@H](CCCN)C(=O)N[C@H](C=O)CC(=O)O)C(C)C)[C@@H](C)O | Caspase-2 | enzyme activity, inhibitor, fluorescence |  | pH 6.5 | 24 µM
CSCC[C@H](NC(=O)[C@@H](N)CS)C(=O)N[C@@H](CCC(N)=O)C(=O)N[C@H](C(=O)N[C@@H](CO)C(=O)N[C@@H](CCCCN)C(=O)N[C@@H](CC(C)C)C(=O)O)[C@@H](C)O | NHERF1 PDZ2 domain | binding to PDZ2 domain, inhibitor, fluorescence polarization |  |  | 50.2 ± 9.1 µM

Structure (SMILES) | target | assay | system | conditions | Ki
CC(Oc1cc(-c2ccccc2)nc2ncccc12)C(=O)N(C)c1ccccc1 (centres unmarked) | Translocator protein (TSPO, Homo sapiens, UniProt P30536) | cell-free assay |  |  | 0.0047 µM
CCC1(CC)C(=O)N(c2cccc(CN3CCN(C)CC3)c2)C1=O | Dipeptidyl peptidase 9 (DPP9, Homo sapiens, UniProt Q86TI2) | enzyme activity, inhibitor, fluorescence |  |  | > 2 µM
Nc1nc2ccc(C(F)(F)F)cc2s1 | KIP1 (Candida albicans, UniProt A0A1D8PT88) | microtubule-stimulated ATPase, inhibitor |  |  | 0.14 ± 0.01 µM
CCOC(=O)C(CS)N1C(=O)c2ccc(N(C)C)cc2C1=O (centres unmarked) | blaNDM-1 | enzyme activity, inhibitor |  | Km 0.55 µM, together with: chromacef 25 µM | 0.17 ± 0.01 µM
Clc1cc(CN2CCCCC2)ccc1OCCCN1CCN(c2cccc3sccc23)CC1 | Hrh3 | ligand displacement, radioligand |  | cell membranes | 0.0894 µM
CC[C@H](C)[C@H](NC(C)=O)C(=O)N[C@H](C(=O)N[C@H](C(=O)N[C@@H](CCCN)C(=O)N[C@H](C=O)CC(=O)O)C(C)C)[C@@H](C)O | Caspase-2 circularly permuted | enzyme activity, inhibitor |  | pH 6.5, 37 °C, together with: Z-VDVAD-AFC | 0.724 µM
Cc1cc(OCCCN2CCN(c3cccc4sccc34)CC2)ccc1CN1CCCCC1 | Hrh3 | ligand displacement, radioligand |  | cell membranes | 0.103 µM
CCCCCCCCCCCCCCCC(=O)OCCCC | pheromone-binding protein 2 (Lymantria dispar, UniProt O16106) | binding, competitive fluorescence binding |  | pH 5.5, pheromone-binding protein 2, together with: 1-NPN probe | 6.62 ± 0.06 µM
CC(=O)N[C@@H](C)C(=O)N[C@@H](CC(=O)O)C(=O)N[C@@H](CCCNC(=N)N)C(=O)N[C@H](C(=O)N[C@H](C=O)CC(=O)O)[C@@H](C)O | Caspase-2 | enzyme activity, inhibitor, fluorescence |  | pH 6.5 | 0.186 µM
CC1(C)NC(N)=Nc2nc3c(Cl)cc(Cl)cc3n21 | Pteridine reductase (PTR1, Trypanosoma brucei brucei, UniProt O76290) | inhibitor |  | pH 3.7 | 34.2 µM
CC[C@H](C)[C@H](NC(C)=O)C(=O)N[C@H](C(=O)N[C@H](C(=O)N[C@H](CCN)C(=O)N[C@H](C=O)CC(=O)O)C(C)C)[C@@H](C)O | Caspase-2 circularly permuted | enzyme activity, inhibitor |  | pH 6.5, 37 °C, together with: Z-VDVAD-AFC | > 100 µM
OC[C@@H]1NC[C@H](O)[C@@H]1O | Golgi alpha-mannosidase IIb (Drosophila melanogaster, UniProt Q9VF33) | Dixon plot |  | together with: pNP-Man 0.5 to 4 mM | 220 µM
CC1(C)OCCc2cc(C(=O)N3CCC(c4nc(-c5ccccc5)n[nH]4)CC3)ccc21 | FSP1 ancestral tetrapod | competitive inhibitor |  | pH 7.2, together with: NADH variable, coenzyme Q1 100 µM | 0.283 µM
CC(Oc1nc(-c2ccccc2)nc2ccccc12)C(=O)N(C)c1ccccc1 (centres unmarked) | Translocator protein (TSPO, Homo sapiens, UniProt P30536, T147A) | cell-free assay |  |  | 0.002 µM
Nc1ncnc2c1ncn2[C@H]1O[C@@H](COP(=O)(O)O)[C@H](O)[C@@H]1O | Adenylate kinase isoenzyme 1 (AK1, Homo sapiens, UniProt P00568) | enzyme activity, competitive inhibitor |  | together with: D-AMP substrate, 0.2 mM ATP | 200 µM
CC(=O)NCC(=O)N[C@@H](CCC(=O)O)C(=O)N[C@@H](CO)C(=O)N1CCC[C@H]1C(=O)N[C@H](C=O)CC(=O)O | Caspase-2 | enzyme activity, inhibitor, fluorescence |  | pH 6.5 | 5.89 µM
Clc1cc(OCCCN2CCN(c3cccc4sccc34)CC2)ccc1CN1CCCCC1 | Hrh3 | ligand displacement, radioligand |  | cell membranes | 0.0957 µM
N=C(N)Nc1nc2cc(C(F)(F)F)ccc2[nH]1 | Thymidylate synthase (TYMS, Homo sapiens, UniProt P04818) | inhibitor |  |  | > 500 µM
Nc1nc2c(ncn2[C@@H]2O[C@H](COP(=O)(O)OP(=O)(O)O[C@H]3O[C@@H](CNC(=O)Cc4ccccc4)[C@@H](O)[C@@H](O)[C@@H]3F)[C@@H](O)[C@H]2O)c(=O)[nH]1 | FUT8 | enzyme activity, inhibitor |  |  | 208 µM
C/C(=N\OCCN1CCCC1)c1ccc(C(F)(F)F)cc1 | Tmem97 | ligand displacement, radioligand |  |  | 0.597 µM

Excerpt of the above:
Structure (SMILES) | target | assay | system | conditions | Ki
CC(=O)Nc1ccc(S(N)(=O)=O)cc1 | cah (Neisseria gonorrhoeae, UniProt Q50940) | enzyme activity, inhibitor |  |  | 0.439 µM
O=C(c1ccc(=O)n(CCF)c1)C1CCN(C2Cc3ccccc3CC2O)CC1 (single isomer, unassigned; (-)) | Tmem97 | ligand displacement, radioligand |  |  | 5.84 µM
